Published values of several laboratories.
Each numbered part is a random draw from the data of one study; scales do not carry over between parts.

Set 1
Target: PABPC1L2, full length, GST fusion (mouse, UniProt A0ABA7IW68)
Method: RNAcompete
Molecule type: RNA
Medium: in vitro
Tested at: 20 nM
Notes: 7-mer, probes averaged, single round
Relative to: mean of 7-mers
Reading: higher = stronger binding
Construct (chain): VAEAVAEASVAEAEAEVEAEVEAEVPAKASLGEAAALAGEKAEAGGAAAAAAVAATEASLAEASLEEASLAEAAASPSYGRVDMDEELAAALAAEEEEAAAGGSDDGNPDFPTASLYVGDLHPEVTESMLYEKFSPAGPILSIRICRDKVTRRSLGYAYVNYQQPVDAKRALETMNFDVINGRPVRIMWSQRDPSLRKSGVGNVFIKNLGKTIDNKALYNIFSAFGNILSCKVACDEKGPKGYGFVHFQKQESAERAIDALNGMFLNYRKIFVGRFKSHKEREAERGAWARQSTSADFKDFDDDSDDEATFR
Sequence | 7-mer Z-score
GAGAAGU | -0.00652
UCGCAUC | -0.387
UUUCUUC | -0.378
CUCAAAC | -0.00833

Set 2
Target: Sal-like protein 4, full length isoform B (SALL4, Homo sapiens, UniProt Q9UJQ4-2, residues 1-616)
Method: universal PBM
Molecule type: double-stranded DNA, one strand shown
Medium: in vitro
Tested at: not given
Notes: 8-mer, flanks averaged, mean of replicates
Reading: higher = stronger binding
Sequence | E-score
ATTTCACC | 0.137
CAGTCCCC | -0.333
AGCTAAAA | 0.178

Set 3
Target: Interferon regulatory factor 5, full length, phosphomimetic (IRF5, Homo sapiens, UniProt Q13568-2, residues 1-514, K96S/S451D/S453D/S456D/S462D)
Method: protein-binding microarray
Molecule type: double-stranded DNA, one strand shown
Medium: in vitro
Tested at: 250 nM
Notes: 60-bp whole probe
Together with: salmon DNA 0.4 mg/ml
Relative to: random background probes
Reading: higher = stronger binding
Sequence | log fluorescence
GCCTAGCACTTAGGTCTCGGACTGGGTGAGTGCTAGGTCTTGATTCGCTTGACGCTGCTG | -0.384 z-score
GCCTAGCACGACGGACTGGACTTTCGGGCCGTGCTAGTCTTGATTCGCTTGACGCTGCTG | 3.5 z-score
GCCTAGCACATAGGTTTCGGGTATCGGTTAGTGCTAGTCTTGATTCGCTTGACGCTGCTG | 9.43 z-score
GCCTAGCACGACGGATTGGGTTTCGGGACGTGCTAGGTCTTGATTCGCTTGACGCTGCTG | 2.67 z-score

Further values, each from its own experiment
Molecule | target | assay | test system | conditions | scale | measurement | value
PhoQ, residues 284 288 289 292 302 303 SIHLQL | PhoP, residues 12 14 15 18 19 AWHSL (Escherichia coli, UniProt P23836) | Sort-seq, refers to: YFP reporter | E. coli | PhoQ-PhoP variant library, together with: 10 µM Mg2+ | relative to: high Mg2+ state, higher = stronger signaling | fold induction | 0.481

Repeated from above (set 2):
Sequence | E-score
AGCTAAAA | 0.178
